Measured values pooled from the literature.
Each line is one published result; not all experiments were run side by side. ± marks the error that the study gave.

SMILES | target or system | assay | test system | setting | scale | quantity | result
CC(C)[C@@H]1NC(=O)[C@@H](CCCNC(=N)N)NC(=O)[C@H]([C@@H](C)O)NC(=O)[C@@H](CCCN)NC(=O)[C@H](Cc2ccc(F)cc2)NC(=O)[C@@H](Cc2ccccc2)NC1=O | Balamuthia mandrillaris | parasite growth, ATP luminescence | – | – | – | IC50 | 9.09 µM
c1ccc(CC(c2c[nH]c3ccccc23)c2c[nH]c3ccccc23)cc1 | Phocaeicola dorei | bacterial growth, inhibitor, OD600 | – | anaerobic | – | IC50 | > 50 µM
COC1C=COC2(C)Oc3c(C)c(O)c4c(c3C2=O)C2=NC3(CCN(CC(C)C)CC3)NC2=C(NC(=O)C(C)=CC=CC(C)C(O)C(C)C(O)C(C)C(OC(=O)Nc2cccnn2)C1C)C4=O (stereo not drawn) | Mycobacteroides abscessus | bacterial growth | subsp. abscessus K21 clinical isolate | – | – | IC50 | 0.025 µM
CNS(=O)(=O)Nc1nccc(Cc2c(C)c3ccc(Oc4ncccc4F)cc3oc2=O)c1F | HCC202 | cell viability | – | 7 days | – | IC50 | 0.0119 µM
Cc1ccc(-c2nc(N)c3c(Nc4ccccc4)n[nH]c3n2)cc1 | rhinovirus A2 | viral cytopathic effect | HeLa | – | – | IC50 | 1.26 µM
CC(c1c[nH]c2ccccc12)c1c[nH]c2ccccc12 | Phocaeicola dorei | bacterial growth, inhibitor, OD600 | – | anaerobic | – | IC50 | > 50 µM
CC(C)[C@@H]1NC(=O)[C@@H](CCCNC(=N)N)NC(=O)[C@H]([C@@H](C)O)NC(=O)[C@@H](CCCN)NC(=O)[C@H](Cc2cccc(F)c2)NC(=O)[C@@H](Cc2ccccc2)NC1=O | Balamuthia mandrillaris | parasite growth, ATP luminescence | – | 72 h | – | IC50 | ≤ 5 µM
C=CC(=O)Nc1cccc(Cn2ncc3cnc(Nc4cnn(CCOC)c4)nc32)c1 | DDR1 human | binding, KINOMEscan | – | 100 nM | lower = stronger binding | percent of control | 100%
c1ccc2c(Cc3c(-c4c[nH]c5ccccc45)[nH]c4ccccc34)c[nH]c2c1 | Phocaeicola dorei | bacterial growth, inhibitor, OD600 | – | anaerobic | – | IC50 | > 50 µM
CSc1ccc(Nc2n[nH]c3nc(-c4ccccc4)nc(N)c23)cc1 | rhinovirus A2 | viral cytopathic effect | HeLa | – | – | IC50 | 23 µM
CCN(CC)CC#CCNc1ccnc2cc(Cl)ccc12 | Plasmodium falciparum | parasite growth, LDH | – | – | – | IC50 | 0.086 µM
Cc1ncsc1-c1ccc(C(C)NC(=O)C2CC(O)CN2C(=O)C(NC(=O)CCCCCCCCCCN2CCCC(Nc3ncc(Cl)c(Nc4ccccc4S(=O)(=O)C(C)C)n3)C2)C(C)(C)C)cc1 (stereo not drawn) | 22Rv1 | RNA-seq, measured: SLC24A1 mRNA | – | concentration not given | relative to: DMSO | log2 fold change | -1.41
CC(=O)C(C)(c1c[nH]c2ccccc12)c1c[nH]c2ccccc12 | Phocaeicola dorei | bacterial growth, inhibitor, OD600 | – | anaerobic | – | IC50 | > 50 µM
CN1CCCNC(=O)c2cccc(c2)C(=O)NCCCN(C)CCCNc2cccc3c2C(=O)c2cccc(c2C3=O)NCCC1 | SAS | RNA-Seq, measured: STK3 mRNA | – | 1 µM, 6 h | relative to: untreated cells | log2 fold change | -0.803
O=C1Nc2ccccc2C1(c1c[nH]c2ccccc12)c1c[nH]c2ccccc12 | Phocaeicola dorei | bacterial growth, inhibitor, OD600 | – | anaerobic | – | IC50 | > 50 µM
Nc1ncc(-c2cc(-c3cnn(CC(F)(F)F)c3)ncc2F)nc1C(=O)NC1CNCC(F)C1 (stereo not drawn) | NDR1 | KINOMEscan | – | 1 µM | relative to: DMSO control | remaining binding | 71%
CCCC[C@H](NC(=O)COCCOCCNC(=O)CN1CCN(CC(=O)O)CCN(CC(=O)O)CC1)C(=O)N[C@H]1CC(=O)NCCCC[C@@H](C(N)=O)NC(=O)[C@H](Cc2c[nH]c3ccccc23)NC(=O)[C@H](CCCNC(=N)N)NC(=O)[C@@H](Cc2ccccc2)NC(=O)[C@H](Cc2c[nH]cn2)NC1=O [technetium-99m labelled] | – | – | C57 mouse, liver | intravenous, 0.037 MBq, 0.5 h | – | tissue uptake | 2.4 ± 0.75 %ID/g
CC(C)[C@@H]1NC(=O)[C@@H](CCCNC(=N)N)NC(=O)[C@H]([C@@H](C)O)NC(=O)[C@@H](CCCN)NC(=O)[C@H](Cc2ccccc2)NC(=O)[C@@H](Cc2cccc(F)c2)NC1=O | Balamuthia mandrillaris | parasite growth, ATP luminescence | – | 72 h | – | IC50 | ≤ 5 µM
CCCCC(CC)COC(=O)CC(C(=O)OCC(CC)CCCC)S(=O)(=O)O.COC(=O)Nc1nc2cc(C(=O)c3ccccc3)ccc2[nH]1 (stereo not drawn) | Cryptococcus neoformans var. grubii | EUCAST broth microdilution | KN99α reference strain | 72 h, 37 °C, RPMI with 2% glucose | – | IC50 | 0.312 µM
COC1CN([C@H]2CC[C@H]([C@@]3(C)Oc4c(Cl)cc(C(=O)NCc5c(SC)cc(C)[nH]c5=O)c(C)c4O3)CC2)C1 | – | RNA-seq, measured: LETM2 mouse homolog | mouse, HT-1376 xenograft, whole blood | dose not given | relative to: vehicle | log2 fold change | 0.105
Cc1cccc(-c2nc(N)c3c(Nc4ccc(F)cc4)n[nH]c3n2)c1 | rhinovirus A2 | viral cytopathic effect | HeLa | – | – | IC50 | 3.59 µM
C=C(NC(=O)c1csc(-c2nc3c(cc2O)-c2nc(cs2)C(=O)NC(C(C)O)C(=O)NC(=C(C)OC)c2nc(cs2)C(=O)NC2c4nc(cs4)C(=O)NC(COC(=O)c4c5c6c(cccc6n4O)COC(=O)C(OC4CC(C)(O)C(N(C)C)C(C)O4)C2OC5)c2nc-3cs2)n1)C(N)=O (stereo not drawn) | – | – | Sprague-Dawley rat, male, plasma | intravenous infusion, 18 mg/kg single dose | – | AUC(0-last) | 5.16 µg·h/mL
Nc1nc(-c2ccccc2)nc2[nH]nc(Nc3c(F)cccc3F)c12 | rhinovirus A2 | viral cytopathic effect | HeLa | – | – | IC50 | 14.2 µM
N=C(N)c1ccc(OCCCCCOc2ccc(C(=N)N)cc2)cc1 | Balamuthia mandrillaris | parasite growth | – | – | – | IC50 | 18 µM

A few entries again:
SMILES | target or system | assay | test system | setting | scale | quantity | result
CC(C)[C@@H]1NC(=O)[C@@H](CCCNC(=N)N)NC(=O)[C@H]([C@@H](C)O)NC(=O)[C@@H](CCCN)NC(=O)[C@H](Cc2ccccc2)NC(=O)[C@@H](Cc2cccc(F)c2)NC1=O | Balamuthia mandrillaris | parasite growth, ATP luminescence | – | 72 h | – | IC50 | ≤ 5 µM
CCCCC(CC)COC(=O)CC(C(=O)OCC(CC)CCCC)S(=O)(=O)O.COC(=O)Nc1nc2cc(C(=O)c3ccccc3)ccc2[nH]1 (stereo not drawn) | Cryptococcus neoformans var. grubii | EUCAST broth microdilution | KN99α reference strain | 72 h, 37 °C, RPMI with 2% glucose | – | IC50 | 0.312 µM
COC1CN([C@H]2CC[C@H]([C@@]3(C)Oc4c(Cl)cc(C(=O)NCc5c(SC)cc(C)[nH]c5=O)c(C)c4O3)CC2)C1 | – | RNA-seq, measured: LETM2 mouse homolog | mouse, HT-1376 xenograft, whole blood | dose not given | relative to: vehicle | log2 fold change | 0.105
